Measured values from different studies.
Protocols differ between the studies behind these lines. “And” joins repeats or separate records; there may be more than shown. ± gives the spread as reported.

| Structure (SMILES) | assay | test system | conditions | how to read | quantity | value |
| --- | --- | --- | --- | --- | --- | --- |
| C[C@H](NCc1ccc(-c2ccc(C(F)(F)F)cc2)cc1)C(N)=O |  | Sprague-Dawley rat, plasma | oral, 10 mg/kg |  | bioavailability | 123% |
| CN[C@H](CC(C)C)C(=O)N[C@H]1C(=O)N[C@@H](CC(N)=O)C(=O)N[C@H]2CN[C@H]3C(=O)N[C@H](C(=O)N[C@H](C(=O)NCCCNC(=N)N)c4cc(O)cc(O)c4-c4cc3ccc4O)[C@H](O)c3ccc(c(Cl)c3)Oc3cc2cc(c3O[C@@H]2O[C@H](CO)[C@@H](O)[C@H](O)[C@H]2O[C@H]2C[C@](C)(NCc3ccc(-c4ccc(Cl)cc4)cc3)[C@H](O)[C@H](C)O2)Oc2ccc(cc2Cl)[C@H]1O |  | mouse |  |  | MTD | ≥ 50 mg/kg |
| CC(C)=CCC/C(C)=C\CCn1cc(CC(C)(P(=O)(O)O)P(=O)(O)O)nn1 |  | mouse CD-1 | intravenous, 0.3 mg/kg, 24 h | relative to: dose | biliary excretion | 0.023% |
| CSCC[C@H](NC(=O)CNC(=O)[C@H](CCCCN)NC(=O)[C@H](CC(C)C)NC(=O)[C@@H]1CCCN1C(=O)[C@H](CO)NC(=O)[C@H](Cc1c[nH]cn1)NC(=O)[C@H](Cc1c[nH]c2ccccc12)NC(=O)[C@H](CCCNC(=N)N)NC(=O)[C@H](CC(C)C)NC(=O)[C@H](CCCNC(=N)N)NC(=O)[C@H](Cc1c[nH]c2ccccc12)NC(=O)[C@H](CS)NC(=O)CCCCCNC(=O)CN1CCN(CC(=O)O)CCN(CC(=O)O)CCN(CC(=O)O)CC1)C(=O)O [copper-64 labelled] |  | BALB/c nude mouse, Huh-7 tumour, tumour and muscle | intravenous, 1.85 MBq, 2 h, ex vivo biodistribution | relative to: tumour over muscle | tumour-to-muscle ratio | 8.42 |
| CN1Cc2cc(Cl)ccc2-n2c(nnc2C2CCN(c3cccc([18F])n3)CC2)C1 |  | C57BL/6 mouse male, small intestine | intravenous, dose not given, 30 min, with: blocking agent 10 mg/kg |  | tissue uptake | 12.9 ± 8.7 %ID/g |
| CCCCCCCCCCCC(=O)C(C)C(=O)N1CCC[C@H]1C(=O)NC(C)(C)C(=O)NC(C)(C)C(=O)NC(C)(C)C(=O)N[C@](C)(CC)C(=O)NCCC(=O)N[C@@H](C)C(=O)N[C@](C)(CC)C(=O)N[C@@H](C)C(=O)N[C@@H](CC(C)C)C(=O)N[C@](C)(CC)C(=O)NCCC(=O)N[C@@H](C)C(=O)N[C@](C)(CC)C(=O)NCCC(=O)N[C@@H](C)C(=O)NC(C)(C)C(=O)NC(C)(C)C(=O)NC(C)(C)C(=O)N[C@@H](C)C(=O)N[C@@H](CC(=O)O)C(=O)O (stereo partly drawn) | LC-MS | 50% pooled human serum | 40 µM, 300 min, pH 7.5, 37 °C | relative to: 0 h | remaining intact peptide | 31.9% and 35.7% and 36.5% |
| O=C1NC2(CC2)COc2ncc(F)cc2[C@H]2COCCN2c2ccn3ncc1c3n2 |  | Sprague-Dawley rat, female, blood | oral, 5 mg/kg/day, end of treatment, 4-week repeated-dose toxicity | relative to: red blood cells | reticulocytes | 1.61 ± 0.59% |
| CC1(C)C(=O)N(c2ccc(C#N)c(C(F)(F)F)c2)C(=S)N1c1ccc(C(N)=O)c(F)c1 |  | human, male, plasma | oral, 160 mg, single dose, fasting |  | AUC(0-inf) | 274 ± 44.8 µg·h/mL |
| COc1cnc2cccc(N3CCc4c(cc(Cn5ccnc5)cc4-c4cn(C)nc4C(F)(F)F)C3=O)c2c1 |  | CD-1 mouse | intraperitoneal, 50 mg/kg once daily, day 4, dose-escalation tolerability | relative to: day 1 | body weight change | 7.1% |
| COc1cc2c(cc1O)C(CCc1ccc(Cl)cc1)N([11CH3])CC2 (stereo not drawn) | PET | Sprague-Dawley rat, male, brain | intravenous, 1 mg/kg, carrier added |  | time to peak brain radioactivity | 1 min |
| CC[C@H](C)[C@H](NC(=O)CNC(=O)[C@H](CC(C)C)NC(=O)[C@H](Cc1ccccc1)NC(=O)CN)C(=O)N[C@@H](CC(C)C)C(=O)N[C@@H](Cc1ccccc1)C(=O)N[C@@H](Cc1c[nH]cn1)C(=O)NCC(=O)N[C@H](C(=O)N[C@@H](Cc1c[nH]cn1)C(=O)N[C@@H](Cc1c[nH]cn1)C(=O)NCC(=O)N[C@@H](CCCNC(=N)N)C(=O)N[C@@H](CCCCN)C(=O)N[C@@H](CCCCN)C(=O)N[C@@H](C)C(=O)N[C@@H](CC(C)C)C(=O)N[C@@H](Cc1c[nH]cn1)C(=O)N[C@@H](CCSC)C(=O)N[C@@H](CC(N)=O)C(=O)N[C@@H](CO)C(=O)N[C@@H](CCC(=O)O)C(=O)N[C@@H](CCCNC(=N)N)C(=O)N[C@@H](CCCNC(=N)N)C(=O)N[C@@H](CO)C(=O)O)C(C)C |  | zebrafish embryos 28 hpf, E3 medium | 24 h |  | chronic toxic concentration | 25 µM |
| CC[C@H](C)[C@H](NC(=O)[C@H](CCCCN)NC(=O)CNC(=O)[C@H](CC(C)C)NC(=O)[C@H](Cc1ccccc1)NC(=O)[C@H](CCCCN)NC(=O)[C@H](CO)NC(=O)[C@H](Cc1ccccc1)NC(=O)[C@H](Cc1c[nH]c2ccccc12)NC(=O)[C@H](CCC(N)=O)NC(=O)[C@@H](NC(=O)[C@H](Cc1ccccc1)NC(=O)CCCCCNC(=O)CN1CCN(CC(=O)O)CCN(CC(=O)O)CCN(CC(=O)O)CC1)C(C)C)C(=O)N[C@@H](CCC(=O)O)C(=O)N1CCC[C@H]1C(=O)N[C@@H](CC(=O)O)C(=O)N[C@H](C(=O)N[C@@H](CO)C(=O)N[C@@H](CCC(N)=O)C(=O)N[C@H](C(=O)N[C@@H](CCC(N)=O)C(=O)N[C@@H](CC(=O)O)C(=O)N1CCC[C@H]1C(=O)N[C@@H](CC(N)=O)C(=O)N[C@@H](CC(=O)O)C(=O)N[C@@H](CCC(N)=O)C(=O)N[C@@H](Cc1ccc(O)cc1)C(=O)N[C@@H](CCC(=O)O)C(=O)N1CCC[C@H]1C(=O)N[C@@H](Cc1ccccc1)C(=O)O)C(C)C)C(C)C [copper-64 labelled] |  | C57BL/6 mice, male, tumour-free, kidneys | 0.5 h |  | tissue uptake | 148 ± 7.9 %ID/g |
| N#[11C]c1ccc(-c2csc(NN=C3CCCC3)n2)cc1 |  | C57BL/6 mice, male, thymus | intravenous, 3 MBq, 1 min |  | radioactivity uptake | 2.65 ± 0.53 %ID/g |
| CSCC[C@H](N)C(=O)N[C@@H](C)C(=O)N[C@@H](Cc1c[nH]c2ccccc12)C(=O)N[C@@H](Cc1c[nH]cn1)C(=O)N[C@@H](CC(=O)O)C(=O)N[C@@H](CC(=O)O)C(=O)N[C@@H](CCC(=O)O)C(=O)N[C@@H](CCC(=O)O)C(=O)N[C@@H](Cc1ccccc1)C(=O)N[C@@H](C)C(=O)N[C@@H](CCCNC(=N)N)C(=O)N[C@@H](CCCNC(=N)N)C(=O)N[C@@H](CCCNC(=N)N)C(=O)N[C@@H](CCCNC(=N)N)C(=O)NCCCCCC(=O)NCCCCC(NC(=O)CCCCCNC(=O)[C@H](CCCNC(=N)N)NC(=O)[C@H](CCCNC(=N)N)NC(=O)[C@H](CCCNC(=N)N)NC(=O)[C@H](CCCNC(=N)N)NC(=O)[C@H](C)NC(=O)[C@H](Cc1ccccc1)NC(=O)[C@H](CCC(=O)O)NC(=O)[C@H](CCC(=O)O)NC(=O)[C@H](CC(=O)O)NC(=O)[C@H](CC(=O)O)NC(=O)[C@H](Cc1c[nH]cn1)NC(=O)[C@H](Cc1c[nH]c2ccccc12)NC(=O)[C@H](C)NC(=O)[C@@H](N)CCSC)C(=O)NCCCCC(NC(=O)C(CCCCNC(=O)CCCCCNC(=O)[C@H](CCCNC(=N)N)NC(=O)[C@H](CCCNC(=N)N)NC(=O)[C@H](CCCNC(=N)N)NC(=O)[C@H](CCCNC(=N)N)NC(=O)[C@H](C)NC(=O)[C@H](Cc1ccccc1)NC(=O)[C@H](CCC(=O)O)NC(=O)[C@H](CCC(=O)O)NC(=O)[C@H](CC(=O)O)NC(=O)[C@H](CC(=O)O)NC(=O)[C@H](Cc1c[nH]cn1)NC(=O)[C@H](Cc1c[nH]c2ccccc12)NC(=O)[C@H](C)NC(=O)[C@@H](N)CCSC)NC(=O)CCCCCNC(=O)[C@H](CCCNC(=N)N)NC(=O)[C@H](CCCNC(=N)N)NC(=O)[C@H](CCCNC(=N)N)NC(=O)[C@H](CCCNC(=N)N)NC(=O)[C@H](C)NC(=O)[C@H](Cc1ccccc1)NC(=O)[C@H](CCC(=O)O)NC(=O)[C@H](CCC(=O)O)NC(=O)[C@H](CC(=O)O)NC(=O)[C@H](CC(=O)O)NC(=O)[C@H](Cc1c[nH]cn1)NC(=O)[C@H](Cc1c[nH]c2ccccc12)NC(=O)[C@H](C)NC(=O)[C@@H](N)CCSC)C(N)=O (stereo partly drawn) |  | C57BL/6 mouse female, lungs | dose not given, 6 h | relative to: total | mean tissue distribution | 1.64% |
| CC(C)C[C@@H](NC(=O)[C@@H](CCCNC(=N)N)NC(=O)[C@@H](Cc1c[nH]cn1)NC(=O)[C@@H](Cc1c[nH]c2ccccc12)NC(=O)[C@@H](Cc1c[nH]cn1)NC(=O)[C@@H](Cc1ccccc1)NC(=O)[C@H](NC(=O)[C@@H](Cc1ccc(O)cc1)NC(=O)CNC(=O)CNC(=O)CCOCCOCCOCCNC(=O)CN1CCN(CC(=O)O)CCN(CC(=O)O)CC1)[C@H](C)O)C(=O)N[C@H](CC(N)=O)C(=O)N1CCC[C@@H]1C(=O)O [gallium-68 labelled] |  | C57BL/6 mice, male | intravenous, 1.85 MBq, 120 min | relative to: tumour over lung | tissue ratio | 5.6 ± 0.66 |
| Cc1ccccc1/N=N/c1ccc2[nH]cc(CCN(C)C)c2c1 | light irradiation | solution | with: light 385 nm |  | cis isomer at photostationary state | 82% |
| N#Cc1ccc(N2N=C3c4ccc(C(=O)O)cc4CCC3C2C2CCCC2)cc1Cl (stereo not drawn) |  | mouse, liver microsomes | 1 µM |  | intrinsic clearance | 7.1 µL/min/mg |
| CCC1=C(C)C2=C(c3ccc(C(=O)NCCNC(=O)c4ccc(P(=NC5=[O+][Ru-]([Cl])[n+]6ccccc65)(c5ccccc5)c5ccccc5)cc4)cc3)c3c(C)c(CC)c(C)n3[B-](F)(F)[N+]2=C1C.Cc1ccc(C(C)C)cc1.[Cl-] | LC-MS shake flask | 1-octanol/PBS |  |  | logP | 3.21 ± 0.08 |

Some of these lines once more:
| Structure (SMILES) | assay | test system | conditions | how to read | quantity | value |
| --- | --- | --- | --- | --- | --- | --- |
| CN[C@H](CC(C)C)C(=O)N[C@H]1C(=O)N[C@@H](CC(N)=O)C(=O)N[C@H]2CN[C@H]3C(=O)N[C@H](C(=O)N[C@H](C(=O)NCCCNC(=N)N)c4cc(O)cc(O)c4-c4cc3ccc4O)[C@H](O)c3ccc(c(Cl)c3)Oc3cc2cc(c3O[C@@H]2O[C@H](CO)[C@@H](O)[C@H](O)[C@H]2O[C@H]2C[C@](C)(NCc3ccc(-c4ccc(Cl)cc4)cc3)[C@H](O)[C@H](C)O2)Oc2ccc(cc2Cl)[C@H]1O |  | mouse |  |  | MTD | ≥ 50 mg/kg |
| N#Cc1ccc(N2N=C3c4ccc(C(=O)O)cc4CCC3C2C2CCCC2)cc1Cl (stereo not drawn) |  | mouse, liver microsomes | 1 µM |  | intrinsic clearance | 7.1 µL/min/mg |
| CC[C@H](C)[C@H](NC(=O)CNC(=O)[C@H](CC(C)C)NC(=O)[C@H](Cc1ccccc1)NC(=O)CN)C(=O)N[C@@H](CC(C)C)C(=O)N[C@@H](Cc1ccccc1)C(=O)N[C@@H](Cc1c[nH]cn1)C(=O)NCC(=O)N[C@H](C(=O)N[C@@H](Cc1c[nH]cn1)C(=O)N[C@@H](Cc1c[nH]cn1)C(=O)NCC(=O)N[C@@H](CCCNC(=N)N)C(=O)N[C@@H](CCCCN)C(=O)N[C@@H](CCCCN)C(=O)N[C@@H](C)C(=O)N[C@@H](CC(C)C)C(=O)N[C@@H](Cc1c[nH]cn1)C(=O)N[C@@H](CCSC)C(=O)N[C@@H](CC(N)=O)C(=O)N[C@@H](CO)C(=O)N[C@@H](CCC(=O)O)C(=O)N[C@@H](CCCNC(=N)N)C(=O)N[C@@H](CCCNC(=N)N)C(=O)N[C@@H](CO)C(=O)O)C(C)C |  | zebrafish embryos 28 hpf, E3 medium | 24 h |  | chronic toxic concentration | 25 µM |
